Assay results collected from several papers.
Parts stem from different laboratories: compare values within a part only. Changes are numbered by the printed parent chain.

Block 1 — method: RNA Bind-n-Seq; molecule type: RNA; sample: in vitro; tested at: 365 nM; relative to: no-protein control; reading: higher = stronger binding
Target: RNA binding protein fox-1 homolog 2, RRM domain, GST-SBP tag (RBFOX2, Homo sapiens, UniProt O43251-10, residues 100-194)
Setting: natural RNA segment, single round, ends assumed
Construct (chain): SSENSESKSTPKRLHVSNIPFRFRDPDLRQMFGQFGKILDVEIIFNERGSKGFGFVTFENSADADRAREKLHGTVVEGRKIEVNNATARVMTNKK
Under “RBNS enrichment (R)”, `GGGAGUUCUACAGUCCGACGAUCAGAGGCUCAAGUGCCCUUGCCGAGUGUCCCCACUGCUCUUGGGGAGGCCCCGGCACAGCCCUGCAGAGAUGCAAGUAAGAGAGUGCCCAGUGCCCUCGGCAGAUGGGUGGUGGAAUUCUCGGGUGCCAA` is recorded as 0.334.
For `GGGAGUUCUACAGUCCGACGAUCUUUAGGAACUCACUCUUUAGAUAUUUACAUCCAGCUUCUCAUGUUAAAUAUUUGUCCUUAAAGGGUUUGAGAUGUACAUCUUUCAUUUCGUAUUUCUCAUAGGCUAUGCCUGGAAUUCUCGGGUGCCAA`, “RBNS enrichment (R)” read 0.641.
Under “RBNS enrichment (R)”, `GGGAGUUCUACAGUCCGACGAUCGGGGAAGAGGGGGUGGGUAAGCGCCCUCCUUCCUGUUUUUAUCUAAUAAAAUGCUAACCUGCCCAGGGUUCCUAUUACUGUGGGAGGGGUCCCCUGGGCCAGCCAGCGAUUGGAAUUCUCGGGUGCCAA` is recorded as 0.563.
For `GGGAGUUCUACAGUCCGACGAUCCUCCCCCAAGGCUCCCUGCCCCUCCUCAUGCCCCUCUGUCCUCUGCGUUUUUUCUGUGUAAUCUAUUUUUUAAGAAGAGUUUGUAUUAUUUUUUCAUACGGCUGCAGCAGUGGAAUUCUCGGGUGCCAA`, “RBNS enrichment (R)” read 1.
For `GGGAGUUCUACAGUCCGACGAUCAAAAAAAAAAAAAACAACAAAAACUUAGAAUUGAGGAGUUGUACCUCCAUUGGCUUCCUCACUCCAAAAUAGGUGCUGAUCCUUCCUAUUCCUAUUCUUUGCCACCUUUUUGGAAUUCUCGGGUGCCAA`, “RBNS enrichment (R)” read 1.02.
Under “RBNS enrichment (R)”, `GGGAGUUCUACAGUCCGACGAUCGUGGAAAGUAUCAGAGUAAGGCUCUCCCCUCCAGAGCCCUGAGUUUCUUGGCUGCAUGAAGGUUUUCUUUAGAAUCAGAAUUGUAGCCAGUUUCUUUGGCCAGAAGGAUGUGGAAUUCUCGGGUGCCAA` is recorded as 0.287.
Under “RBNS enrichment (R)”, `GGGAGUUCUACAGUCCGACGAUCUUGCACACUUGUUUGUACUGUUUUCUUUGAAAUAAAAGUGACUAAUUUUGUCGUACUCUAUCUGUAAGAGCAGAGCCAUAUGUAAUGUACCCACAAAUUCUCUCUUCCUCUGGAAUUCUCGGGUGCCAA` is recorded as 0.567.
`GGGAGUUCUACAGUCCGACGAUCAAUUGCACAAAGUGUAGGUAUUCAUGUUAAUGGAUAUUUAAGCACAGUCCUAGAAGGUAUGUUUUAAGAAUACUGUGUAGUACACAUUAUUGCAACAUACACCUGAGAUUUGGAAUUCUCGGGUGCCAA`: “RBNS enrichment (R)” 0.28.
`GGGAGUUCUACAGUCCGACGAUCUCCCCCUUUUUAAUUGAGAGGAUCGUUCGAAUGAGCCUCUGUGGCCUCUCCUUAGAGGCCUUCACAAGAAGCAUAGACACUGUCCCUGACGGUAAUUAGAAGAAGCAGAGUGGAAUUCUCGGGUGCCAA` — result for “RBNS enrichment (R)”: 0.409.
Under “RBNS enrichment (R)”, `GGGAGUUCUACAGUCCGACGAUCAAUAUAUACAGUAAUUGUAGGGUCAUACCUCAAAUGCUGGUAUCUUACUUGGCCAUGGGGUUGCUUGUUUAAAUAUUAAACUUACCCUUGUGACCUCUGUCCACAGUCAUUGGAAUUCUCGGGUGCCAA` is recorded as 0.222.
Under “RBNS enrichment (R)”, `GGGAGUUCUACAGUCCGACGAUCCCUUCUGAGCUGUGGAGAUCACACCAUCCUGUCGCCCUGCAAAUAAUUGUGGAUCAUUUACCUUGAGGCUGCAGAGUGGGUUCCAGGACUCUUACUUCACUGUGGAGGGAUGGAAUUCUCGGGUGCCAA` is recorded as 0.219.
`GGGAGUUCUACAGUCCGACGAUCUCAUGUCUCAGUUCCCAUCUAGCAAGGUGGCUUCAGGAGAGCAGAAGGAGGACCAGUCUGAAGAUAAGAAAAGACCCAGCCUGCCUUCCAGCCCGUCUCCUGGCCUCCCAUGGAAUUCUCGGGUGCCAA`: “RBNS enrichment (R)” 0.371.

Block 2 — method: Sort-seq; item: YFP reporter; sample: E. coli; setting: PhoQ-PhoP variant library; together with: 10 µM Mg2+; relative to: high Mg2+ state; reading: higher = stronger signaling
Substance: PhoQ, residues 284 288 289 292 302 303 TAVSDG
PhoP, residues 12 14 15 18 19 VHTVL (Escherichia coli, UniProt P23836) — fold induction: 10.8.
PhoP, residues 12 14 15 18 19 ICWRQ (Escherichia coli, UniProt P23836) — fold induction: 6.96.
PhoP, residues 12 14 15 18 19 TQCLL (Escherichia coli, UniProt P23836) — fold induction: 13.5.

Block 3 — target: CCNB2, cyclin fold, Cln2 fusion (human); method: yeast growth competition, sequencing; sample: yeast; setting: strong parent motif; relative to: not given; reading: higher = stronger binding
Starting sequence: BRCA2 docking peptide (human); PSIKRNLLNEFDR
For `PSIKRNLLNEFDL [R13L]`, “normalised enrichment score” read 3.56.
`PEIKRNLLNEFDR [S2E]` — result for “normalised enrichment score”: 3.03.
`PSIKRNLLNYFDR [E10Y]`: “normalised enrichment score” 1.05.
For `PSIKRNLANEFDR [L8A]`, “normalised enrichment score” read 2.55.
`PSIKRNLLNEFRR [D12R]`: “normalised enrichment score” 1.58.
Under “normalised enrichment score”, `DSIKRNLLNEFDR [P1D]` is recorded as 3.77.
For `PSIKRNQLNEFDR [L7Q]`, “normalised enrichment score” read 0.695.
`PQIKRNLLNEFDR [S2Q]` — result for “normalised enrichment score”: 3.58.
For `PSIKRNLLREFDR [N9R]`, “normalised enrichment score” read 3.51.
Under “normalised enrichment score”, `PSIKRNTLNEFDR [L7T]` is recorded as 0.305.
`PSIKRNLLNMFDR [E10M]` — result for “normalised enrichment score”: 0.579.
For `PSIKRNLLNEFDP [R13P]`, “normalised enrichment score” read 3.19.
Under “normalised enrichment score”, `PSIKRNFLNEFDR [L7F]` is recorded as 0.264.
Under “normalised enrichment score”, `PSYKRNLLNEFDR [I3Y]` is recorded as 1.11.

Block 4 — method: universal PBM; molecule type: double-stranded DNA, one strand shown; sample: in vitro; tested at: not given; reading: higher = stronger binding
Target: Sal-like protein 4, full length isoform B (SALL4, Homo sapiens, UniProt Q9UJQ4-2, residues 1-616)
Setting: 8-mer, flanks averaged, mean of replicates
`CAACGTCA` gave an E-score of 0.0579.
With `CCGGTCTA` the E-score was -0.316.
With `AAGGACCA` the E-score was -0.176.
`CTGGAAAA` gave an E-score of 0.0693.
`CGGTCCCA` gave an E-score of -0.321.
With `CGTCACCC` the E-score was -0.147.
`CTGAAGAA` has an E-score of -0.131.
`AGTTCTAG` has an E-score of -0.0257.
`CCTGAGTA` gave an E-score of 0.0272.
`CTTGGGGC` has an E-score of -0.292.
`CTCATGAA` gave an E-score of 0.121.
The E-score of `AAGACGTG` is reported as -0.0739.
With `CGGCTCCC` the E-score was -0.387.

A few entries again (block 2):
PhoP, residues 12 14 15 18 19 VHTVL (Escherichia coli, UniProt P23836) — fold induction: 10.8.
PhoP, residues 12 14 15 18 19 ICWRQ (Escherichia coli, UniProt P23836) — fold induction: 6.96.
PhoP, residues 12 14 15 18 19 TQCLL (Escherichia coli, UniProt P23836) — fold induction: 13.5.
